Results pooled from the literature.
Compare with care: the assays were run in different laboratories. Numbers after ± are the reported error.
LGALS4 C-terminal domain: Galectin-4, C-terminal domain (LGALS4, Homo sapiens, UniProt P56470)
Chain of UniProt P56470 (whole entry, looked up): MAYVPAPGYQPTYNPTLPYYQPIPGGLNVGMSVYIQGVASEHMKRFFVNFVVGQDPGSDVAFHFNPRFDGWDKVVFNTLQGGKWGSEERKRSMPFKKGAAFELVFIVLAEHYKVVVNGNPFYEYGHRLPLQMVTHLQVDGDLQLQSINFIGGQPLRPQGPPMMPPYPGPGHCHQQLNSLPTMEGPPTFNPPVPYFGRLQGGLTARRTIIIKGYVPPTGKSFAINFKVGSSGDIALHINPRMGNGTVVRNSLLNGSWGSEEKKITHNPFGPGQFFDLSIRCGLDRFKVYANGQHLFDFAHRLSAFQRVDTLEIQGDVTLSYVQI
LGALS3: Galectin-3 (LGALS3, Homo sapiens, UniProt P17931)
Chain of UniProt P17931 (whole entry, unmodified, looked up): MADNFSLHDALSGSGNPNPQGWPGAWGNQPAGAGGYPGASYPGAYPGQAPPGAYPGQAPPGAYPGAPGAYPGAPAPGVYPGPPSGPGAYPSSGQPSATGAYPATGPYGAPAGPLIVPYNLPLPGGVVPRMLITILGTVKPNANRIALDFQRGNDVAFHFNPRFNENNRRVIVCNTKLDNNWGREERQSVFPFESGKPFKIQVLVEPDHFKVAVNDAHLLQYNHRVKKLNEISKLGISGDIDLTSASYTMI
BCL2L1: Bcl-2-like protein 1 (BCL2L1, Homo sapiens, UniProt Q07817)
Chain of UniProt Q07817 (whole entry, looked up): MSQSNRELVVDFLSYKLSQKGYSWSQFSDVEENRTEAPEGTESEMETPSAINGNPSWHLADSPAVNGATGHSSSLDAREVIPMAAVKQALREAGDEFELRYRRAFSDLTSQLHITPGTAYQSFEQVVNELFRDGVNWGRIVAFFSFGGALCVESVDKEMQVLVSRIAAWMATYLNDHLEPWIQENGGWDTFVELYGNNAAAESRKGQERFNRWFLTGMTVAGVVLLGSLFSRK
SOST: Sclerostin (SOST, Homo sapiens, UniProt Q9BQB4)
Chain of UniProt P27694 (whole entry, unmodified, looked up): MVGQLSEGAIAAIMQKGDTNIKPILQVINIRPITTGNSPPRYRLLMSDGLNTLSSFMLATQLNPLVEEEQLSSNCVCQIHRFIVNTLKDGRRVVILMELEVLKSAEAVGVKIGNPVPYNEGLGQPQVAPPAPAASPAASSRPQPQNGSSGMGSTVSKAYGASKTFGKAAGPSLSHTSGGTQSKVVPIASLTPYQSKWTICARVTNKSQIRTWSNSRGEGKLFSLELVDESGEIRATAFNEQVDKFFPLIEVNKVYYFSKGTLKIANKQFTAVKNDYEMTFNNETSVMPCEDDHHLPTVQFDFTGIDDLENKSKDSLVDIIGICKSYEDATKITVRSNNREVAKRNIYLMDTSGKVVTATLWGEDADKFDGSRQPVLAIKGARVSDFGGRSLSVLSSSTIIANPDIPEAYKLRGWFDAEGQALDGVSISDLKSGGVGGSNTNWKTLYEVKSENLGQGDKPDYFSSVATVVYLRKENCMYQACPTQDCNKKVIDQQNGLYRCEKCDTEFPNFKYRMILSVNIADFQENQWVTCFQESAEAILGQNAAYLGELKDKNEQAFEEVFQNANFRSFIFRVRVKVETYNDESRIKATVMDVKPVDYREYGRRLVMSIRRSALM
Chain of UniProt Q9BQB4 (whole entry, looked up): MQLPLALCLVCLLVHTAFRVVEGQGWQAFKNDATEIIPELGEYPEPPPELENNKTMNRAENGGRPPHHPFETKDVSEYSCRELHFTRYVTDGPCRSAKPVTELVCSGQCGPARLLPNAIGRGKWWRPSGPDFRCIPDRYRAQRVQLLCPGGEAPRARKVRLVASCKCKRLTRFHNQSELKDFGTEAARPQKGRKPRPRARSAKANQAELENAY
Chain of UniProt Q9LFP6 (whole entry, looked up): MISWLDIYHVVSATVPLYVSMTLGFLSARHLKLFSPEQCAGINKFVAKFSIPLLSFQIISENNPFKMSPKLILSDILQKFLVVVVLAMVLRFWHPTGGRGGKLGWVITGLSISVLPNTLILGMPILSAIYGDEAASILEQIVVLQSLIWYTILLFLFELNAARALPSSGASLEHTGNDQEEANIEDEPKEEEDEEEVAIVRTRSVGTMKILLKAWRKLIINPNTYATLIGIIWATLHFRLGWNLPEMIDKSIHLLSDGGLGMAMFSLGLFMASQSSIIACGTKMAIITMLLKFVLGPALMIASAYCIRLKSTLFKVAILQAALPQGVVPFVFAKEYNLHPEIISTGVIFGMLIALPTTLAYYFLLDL
Chain of UniProt P98170 (whole entry, unmodified, looked up): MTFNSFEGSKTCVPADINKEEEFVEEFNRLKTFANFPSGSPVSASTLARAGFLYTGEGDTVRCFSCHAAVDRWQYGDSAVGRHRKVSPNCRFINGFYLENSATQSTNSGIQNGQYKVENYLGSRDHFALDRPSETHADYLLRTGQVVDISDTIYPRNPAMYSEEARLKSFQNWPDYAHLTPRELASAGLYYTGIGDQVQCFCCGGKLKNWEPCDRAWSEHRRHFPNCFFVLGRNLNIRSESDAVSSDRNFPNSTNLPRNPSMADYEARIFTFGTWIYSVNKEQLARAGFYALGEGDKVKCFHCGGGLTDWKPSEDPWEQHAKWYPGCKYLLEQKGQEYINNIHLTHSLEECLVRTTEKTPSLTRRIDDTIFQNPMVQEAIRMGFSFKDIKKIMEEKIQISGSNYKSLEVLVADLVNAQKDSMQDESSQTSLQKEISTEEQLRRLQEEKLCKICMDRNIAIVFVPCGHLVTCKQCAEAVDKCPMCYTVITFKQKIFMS
Chain of UniProt Q03405 (whole entry, looked up): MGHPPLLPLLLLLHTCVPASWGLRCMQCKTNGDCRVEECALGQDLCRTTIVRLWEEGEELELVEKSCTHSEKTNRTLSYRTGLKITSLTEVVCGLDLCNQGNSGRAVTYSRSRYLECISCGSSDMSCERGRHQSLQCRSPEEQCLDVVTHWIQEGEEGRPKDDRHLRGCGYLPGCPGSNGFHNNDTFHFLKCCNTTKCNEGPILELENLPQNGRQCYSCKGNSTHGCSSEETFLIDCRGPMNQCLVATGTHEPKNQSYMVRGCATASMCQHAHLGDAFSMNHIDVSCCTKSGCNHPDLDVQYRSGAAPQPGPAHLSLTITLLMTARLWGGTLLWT
Chain of UniProt Q7Z1V1 (whole entry, looked up): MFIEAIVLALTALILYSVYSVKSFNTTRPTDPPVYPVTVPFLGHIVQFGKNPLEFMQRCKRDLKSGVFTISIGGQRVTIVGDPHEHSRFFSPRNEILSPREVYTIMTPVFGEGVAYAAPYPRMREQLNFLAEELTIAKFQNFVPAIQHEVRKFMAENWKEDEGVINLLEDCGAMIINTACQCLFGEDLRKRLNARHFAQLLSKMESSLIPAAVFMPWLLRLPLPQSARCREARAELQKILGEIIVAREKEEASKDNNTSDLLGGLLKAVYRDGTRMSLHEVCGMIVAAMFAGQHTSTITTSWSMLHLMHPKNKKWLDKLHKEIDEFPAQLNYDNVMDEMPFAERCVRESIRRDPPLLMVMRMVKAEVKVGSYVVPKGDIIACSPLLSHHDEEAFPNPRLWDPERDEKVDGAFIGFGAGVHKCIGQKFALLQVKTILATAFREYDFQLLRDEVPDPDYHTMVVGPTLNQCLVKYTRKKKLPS
Chain of UniProt P40337 (whole entry, looked up): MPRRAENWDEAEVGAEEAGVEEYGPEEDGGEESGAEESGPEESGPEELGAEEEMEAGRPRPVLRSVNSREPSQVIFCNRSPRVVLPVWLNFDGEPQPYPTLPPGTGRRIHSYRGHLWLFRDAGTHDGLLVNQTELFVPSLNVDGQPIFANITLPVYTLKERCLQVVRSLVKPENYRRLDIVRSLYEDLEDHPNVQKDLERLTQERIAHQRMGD
Chain of UniProt A9CEZ0 (whole entry, looked up): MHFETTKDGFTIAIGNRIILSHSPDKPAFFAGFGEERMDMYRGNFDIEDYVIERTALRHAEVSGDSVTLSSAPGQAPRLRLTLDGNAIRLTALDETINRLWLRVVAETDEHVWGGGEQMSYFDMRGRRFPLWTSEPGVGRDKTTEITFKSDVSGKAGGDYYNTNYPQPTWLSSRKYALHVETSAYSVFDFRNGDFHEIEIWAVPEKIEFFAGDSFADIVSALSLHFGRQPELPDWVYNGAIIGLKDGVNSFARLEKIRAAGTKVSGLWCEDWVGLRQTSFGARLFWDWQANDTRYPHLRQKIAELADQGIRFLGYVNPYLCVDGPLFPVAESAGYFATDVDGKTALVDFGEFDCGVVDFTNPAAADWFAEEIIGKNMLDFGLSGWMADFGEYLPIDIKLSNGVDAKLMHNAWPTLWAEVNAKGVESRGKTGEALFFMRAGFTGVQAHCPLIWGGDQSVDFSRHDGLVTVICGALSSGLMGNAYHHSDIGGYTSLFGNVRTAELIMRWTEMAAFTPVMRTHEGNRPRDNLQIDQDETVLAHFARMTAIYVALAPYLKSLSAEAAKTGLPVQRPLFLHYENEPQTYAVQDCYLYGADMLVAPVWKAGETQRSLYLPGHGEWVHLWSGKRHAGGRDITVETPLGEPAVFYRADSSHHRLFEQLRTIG
Chain of UniProt P21554 (whole entry, looked up): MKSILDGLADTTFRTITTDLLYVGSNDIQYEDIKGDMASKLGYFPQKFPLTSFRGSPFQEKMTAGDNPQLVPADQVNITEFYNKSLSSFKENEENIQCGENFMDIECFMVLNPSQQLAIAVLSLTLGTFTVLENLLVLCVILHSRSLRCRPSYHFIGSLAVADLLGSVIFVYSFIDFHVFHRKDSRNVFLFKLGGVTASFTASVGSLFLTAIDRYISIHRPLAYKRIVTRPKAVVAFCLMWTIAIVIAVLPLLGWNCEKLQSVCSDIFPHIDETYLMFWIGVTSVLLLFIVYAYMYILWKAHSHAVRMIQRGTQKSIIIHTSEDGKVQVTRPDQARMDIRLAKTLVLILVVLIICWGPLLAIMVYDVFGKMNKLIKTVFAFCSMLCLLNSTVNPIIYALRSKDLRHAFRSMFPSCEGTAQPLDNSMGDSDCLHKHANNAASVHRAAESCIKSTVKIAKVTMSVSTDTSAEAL
Chain of UniProt P62937 (whole entry, looked up): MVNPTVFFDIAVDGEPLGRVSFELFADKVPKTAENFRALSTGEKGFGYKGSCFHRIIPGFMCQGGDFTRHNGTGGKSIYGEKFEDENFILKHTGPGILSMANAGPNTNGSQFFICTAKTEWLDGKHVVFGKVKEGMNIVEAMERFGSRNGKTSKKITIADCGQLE

| SMILES | target | assay | test system | conditions | Kd [µM] |
| --- | --- | --- | --- | --- | --- |
| O=C(N[C@@H](Cn1cncn1)c1ccc(F)cc1F)c1ccc(-c2nnc(-c3ccccc3)o2)cc1 | CYP51 (Trypanosoma cruzi, UniProt Q7Z1V1) | binding, absorbance | – | – | 0.07 |
| OC[C@H]1Oc2cc(I)cc3c2[C@@H](OC3)[C@H]1O | LGALS4 C-terminal domain | binding, competitive fluorescence polarization | – | 20 °C | 1600 ± 220 |
| COc1ccccc1-c1cc(C(=O)Nc2ccc(S(=O)(=O)Nc3cc(C)on3)cc2)c2ccccc2n1 | PPIA (Homo sapiens, UniProt P62937) | binding, SPR | – | pH 7.4 | 23.2 |
| NC(=O)c1ccc[n+]([C@@H]2O[C@H](COP(=O)([O-])OP(=O)(O)OC[C@H]3O[C@@H](n4cnc5c(N)ncnc54)[C@H](O)[C@@H]3O)[C@@H](O)[C@H]2O)c1 | kptA (Runella slithyformis, UniProt A0A7U3ZK32) | binding, isothermal titration calorimetry | – | with: saturating NADP+ | 47 ± 3 |
| COc1ccc2nc3cc(Cl)ccc3c(NCCCCNc3nc(N)nc(N)n3)c2c1 | DNA duplex with (CCTG)2 step | binding, ITC | – | binding site 3 | 37 |
| CO[C@H](C(=O)[C@@H](O)[C@@H](C)O)[C@@H]1Cc2cc3cc(O[C@H]4C[C@@H](O[C@H]5C[C@@H](O)[C@H](O)[C@@H](C)O5)[C@H](O)[C@@H](C)O4)c(C)c(O)c3c(O)c2C(=O)[C@H]1O[C@H]1C[C@@H](O[C@H]2C[C@@H](O[C@H]3C[C@](C)(O)[C@H](O)[C@@H](C)O3)[C@@H](O)[C@@H](C)O2)[C@H](O)[C@@H](C)O1 | histone H2A-H2B dimer | fluorescence quenching titration | – | pH 7.0, 25 °C, no Mg2+ | 0.78 ± 0.03 |
| COc1ccc(C(=O)N[C@H]2[C@@H](O)[C@@H](CO)O[C@@H](OC)[C@@H]2O)cc1 | LGALS3 | cell-free assay, FP | – | – | 620 |
| Cc1ccccc1OCC(=O)O | PIN8 (Arabidopsis thaliana, UniProt Q9LFP6) | cell-free assay | – | – | 250 |
| COC(=O)c1ccc(CNC(=O)[C@@H]2C[C@@H](O)CN2C(=O)CC(C)(C)C)cc1 | von Hippel-Lindau disease tumor suppressor, with Elongin B/C (VHL, Homo sapiens, UniProt P40337) | isothermal titration calorimetry | – | 25 °C | 45.5 ± 2.6 |
| CC(=O)N/C(N)=N/C(=N\S(=O)(=O)c1ccc(C(F)(F)F)cc1)N1C[C@H](c2ccccc2)C(c2ccc(Cl)cc2)=N1 | CNR1 (Homo sapiens, UniProt P21554) | cell-free assay, radioligand | – | cell membranes | 0.0003 |
| CN(C)c1ccc2c(-c3ccc(C(=O)NCCCC[C@@H](NC(=O)[C@@H](CCCNC(=N)N)NC(=O)[C@@H](CCCNC(=N)N)NC(=O)[C@@H](CCCNC(=N)N)NC(=O)[C@@H](CCCNC(=N)N)NC(=O)[C@@H](CCCNC(=N)N)NC(=O)[C@@H](CCCNC(=N)N)NC(=O)CCCCCNC(=O)[C@@H](CCCNC(=N)N)NC(=O)CCCCCNC(=O)c4ccc(-c5ccnc(N)n5)s4)C(N)=O)cc3C(=O)[O-])c3ccc(=[N+](C)C)cc-3oc2c1 | cGMP-dependent protein kinase 1, isoform alpha (PRKG1, Homo sapiens, UniProt Q13976) | binding, fluorescence intensity | – | with: cGMP | 0.00386 |
| CC[C@H](C)[C@H](NC(=O)[C@H](CCC(=O)O)NC(=O)[C@@H]1CCCN1C(=O)[C@H](CCCNC(=N)N)NC(C)=O)C(=O)N[C@@H](Cc1c[nH]c2ccccc12)C(=O)N[C@@H](CC(=O)O)C(=O)N[C@@H](C)C(=O)N[C@@H](CCC(N)=O)C(=O)N[C@@H](CCC(=O)O)C(=O)N[C@@H](CC(C)C)C(=O)N[C@@H](CCCCN)C(=O)N[C@@H](CCCNC(=N)N)C(=O)N[C@@H](Cc1ccccc1)C(=O)NCC(=O)N[C@@H](CC(=O)O)C(=O)N[C@@H](CCC(=O)O)C(=O)N[C@@H](Cc1ccccc1)C(=O)N[C@@H](CC(N)=O)C(=O)N[C@@H](C)C(=O)N[C@@H](Cc1ccc(O)cc1)C(=O)N[C@@H](Cc1ccc(O)cc1)C(=O)N[C@@H](C)C(=O)N[C@@H](CCCNC(=N)N)C(=O)N[C@@H](CCCNC(=N)N)C(=O)N[C@H](C(=O)N[C@@H](Cc1ccccc1)C(=O)N[C@@H](CC(C)C)C(=O)N[C@@H](CC(N)=O)C(N)=O)C(C)C | BCL2L1 | binding, flow cytometry | – | pH 8 | 0.011 |
| O=C(Nc1cccc(C(=O)Nc2ccc(S(=O)(=O)O)c3cc(S(=O)(=O)O)cc(S(=O)(=O)O)c23)c1)Nc1cccc(C(=O)Nc2ccc(S(=O)(=O)O)c3cc(S(=O)(=O)O)cc(S(=O)(=O)O)c23)c1 | E3 ubiquitin-protein ligase XIAP, BIR1 domain (XIAP, Homo sapiens, UniProt P98170, V86E) | microscale thermophoresis | – | – | 135 ± 30 |
| CC[C@H](C)[C@H](NC(=O)[C@H](CO)NC(=O)[C@H](CCSC)NC(=O)[C@H](CC(C)C)NC(=O)[C@H](CC(=O)O)NC(=O)[C@H](CC(=O)O)NC(=O)[C@H](C)NC(=O)[C@H](CO)NC(=O)[C@H](Cc1ccccc1)NC(=O)[C@H](C)NC(C)=O)C(=O)N[C@@H](CC(=O)O)C(=O)N[C@@H](CC(C)C)C(=O)N[C@@H](C)C(=O)N[C@@H](CCC(=O)O)C(=O)N[C@@H](CCC(N)=O)C(N)=O | Replication protein A 70 kDa DNA-binding subunit, N-terminal domain (RPA1, Homo sapiens, UniProt P27694) | binding, NMR titration | – | 25 °C | 100 ± 0.1 |
| CC[C@H](C)[C@H](NC(=O)[C@H](CCCNC(=N)N)NC(=O)[C@H](CCCCN)NC(=O)[C@H](CC(C)C)NC(=O)[C@H](CCC(=O)O)NC(=O)[C@H](CCC(N)=O)NC(=O)[C@H](C)NC(=O)[C@@H](NC(=O)[C@H](Cc1c[nH]c2ccccc12)NC(=O)[C@@H](NC(=O)[C@H](CCC(=O)O)NC(=O)[C@@H]1CCCN1C(=O)[C@H](CCCNC(=N)N)NC(C)=O)[C@@H](C)CC)C(C)C)C(=O)NCC(=O)N[C@@H](CC(=O)O)C(=O)N[C@@H](CCC(=O)O)C(=O)N[C@@H](Cc1ccccc1)C(=O)N[C@@H](CC(N)=O)C(=O)N[C@@H](C)C(=O)N[C@@H](Cc1ccc(O)cc1)C(=O)N[C@@H](Cc1ccc(O)cc1)C(=O)N[C@@H](C)C(=O)N[C@@H](CCCNC(=N)N)C(=O)N[C@@H](CCCNC(=N)N)C(=O)N[C@H](C(=O)N[C@@H](Cc1ccccc1)C(=O)N[C@@H](CC(C)C)C(=O)N[C@@H](CC(N)=O)C(N)=O)C(C)C | BCL2L1 | competitive fluorescence polarization | – | with: fluorescein-labelled peptide 10 nM | 0.0001 |
| Nc1ncnc2c1ncn2[C@@H]1O[C@H](CO)[C@@H](O[C@H]2O[C@H](CO)[C@@H](OP(=O)(O)O)[C@H](OP(=O)(O)O)[C@H]2O)[C@H]1O | Inositol 1,4,5-trisphosphate-gated calcium channel ITPR1, IP3-binding core (Itpr1, Rattus norvegicus, UniProt P29994, R504Q) | binding, 3H-IP3 competition | – | IP3-binding core IBC^R504Q | 0.308 |
| O=S(=O)(O)C[C@H]1CNC[C@@H](O)[C@@H]1O | Sulfoquinovosidase (smoI, Agrobacterium fabrum, UniProt A9CEZ0) | – | – | – | 6.8 ± 0.2 |
| CCc1nc2cc3ccccc3cc2cc1C(=O)N1CCC[C@H]1C(=O)N[C@@H](CCC/C=C/CCC[C@H](NC(=O)[C@@H]1CCCN1C(=O)c1cc2cc3ccccc3cc2nc1CC)C(=O)N[C@@H](CCCCN)C(=O)NCCCN)C(=O)N[C@@H](CCCCN)C(=O)NCCCN | (CUG)10 RNA | binding, fluorescence titration | – | – | 0.057 ± 0.001 |
| COc1c(F)c(F)c(C(=O)N[C@H]2[C@@H](O)[C@@H](CO)O[C@@H](S[C@@H]3O[C@H](CO)[C@H](O)[C@H](NC(=O)c4c(F)c(F)c(OC)c(F)c4F)[C@H]3O)[C@@H]2O)c(F)c1F | LGALS3 | binding, ITC | – | – | 0.604 |
| CS[C@@H]1O[C@H](COS(=O)(=O)O)[C@@H](OS(=O)(=O)O)[C@H](O[C@@H]2O[C@H](C(=O)O)[C@@H](O[C@@H]3O[C@H](COS(=O)(=O)O)[C@@H](OS(=O)(=O)O)[C@H](O[C@@H]4O[C@H](C(=O)O)[C@@H](OS(=O)(=O)O)[C@H](OS(=O)(=O)O)[C@H]4OS(=O)(=O)O)[C@H]3NC(C)=O)[C@H](OS(=O)(=O)O)[C@H]2OS(=O)(=O)O)[C@H]1NC(C)=O | SOST | ligand displacement, FP | – | – | 37.3 |
| Cc1ccc(-c2ccc(-c3cc4sccc4o3)cn2)nc1 | zinc(II) | binding, fluorescence titration | aqueous HEPES buffer | pH 7.4, metal-buffered solution | 0.01 to 0.4 |
| CC(C)C1=CC23CCC4C(C)(C(=O)O)CCCC4(C)C2CC1C(C(=O)O)C3C(=O)O (stereo not drawn) | RPA1 (Homo sapiens, UniProt P27694, R41E/R43E) | binding, fluorescence | – | – | 230 |
| CC(C)C[C@H](NC(=O)[C@H](Cc1ccc(O)cc1)NC(=O)[C@@H](CCCNC(=N)N)NC(=O)[C@@H](CO)NC(=O)[C@H](Cc1ccccc1)NC(=O)[C@H](CC1CCCCC1)NC(=O)[C@@H](N)CC(=O)O)C(=O)N[C@@H](Cc1c[nH]c2ccccc12)C(=O)N[C@@H](CO)C(=O)O | Urokinase plasminogen activator surface receptor (Homo sapiens, UniProt Q03405) | binding, surface plasmon resonance | – | – | 0.012 |
| CC(=O)N[C@@H]1[C@@H](O[C@@H]2O[C@H](C(=O)O)[C@@H](O[C@@H]3O[C@H](CO)[C@@H](O)[C@H](O[C@@H]4O[C@H](C(=O)O)[C@@H](OS(=O)(=O)O)[C@H](OS(=O)(=O)O)[C@H]4OS(=O)(=O)O)[C@H]3NC(C)=O)[C@H](OS(=O)(=O)O)[C@H]2OS(=O)(=O)O)[C@H](O)[C@@H](CO)O[C@H]1N=[N+]=[N-] | SOST | ligand displacement, FP | – | – | 14 |
| C[n+]1cc2cc3cc(ccc31)NC(=O)CCCCC(=O)Nc1ccc3c(c1)cc(c[n+]3C)C(=O)Nc1ccc3[nH]cc(c3c1)CCNC2=O | c-KIT cKIT2 G-quadruplex DNA | thiazole orange displacement | – | with: 0.50 µM thiazole orange | 0.13 ± 0.04 |
| OC[C@H]1Oc2cc(Cc3ccc(F)cc3)cc3c2[C@@H](OC3)[C@H]1O | LGALS4 C-terminal domain | binding, competitive fluorescence polarization | – | 20 °C | ~3000 |
| COc1cccc(C(=O)N[C@H]2[C@@H](O)[C@@H](CO)O[C@@H](S[C@@H]3O[C@H](CO)[C@H](O)[C@H](NC(=O)c4cccc(OC)c4)[C@H]3OS(=O)(=O)O)[C@@H]2O)c1 | Galectin-3 (LGALS3, Homo sapiens, UniProt P17931, R144S) | cell-free assay, FP | – | – | 0.55 |
